Results collected from several papers.
Each line is one published result; not all experiments were run side by side. ± gives the spread as reported.

The EC50 of `Cc1cc(/C=C/C#N)cc(C)c1Nc1nc(Nc2ccc(/C=C/C#N)cc2)ncc1N` is reported as 3.1 ± 0.6 nM (HIV-1; viral replication, single-round infection; RT mutant K101E/M184I).
For `Cc1cc(/C=C/C#N)cc(C)c1Nc1ccnc(Nc2ccc(C#N)cc2)n1`, the EC50 was over 273 nM (HIV-1 GH9; viral replication; TZM-bl, K101P/K103N/V108I).
`Cc1cc(/C=C/C#N)cc(C)c1Nc1nc(Nc2ccc3cc(C#N)ccc3c2)ncc1N` has an EC50 of 18.7 ± 2.1 nM (HIV-1; viral replication, single-round infection; RT mutant V106A/F227L).
`CC(C)CCCC(C)CCN1CCn2cc(C(=O)NCc3ccc(F)cc3F)c(=O)c(O)c2C1=O` (centres unmarked) has an EC50 of over 30 nM (human immunodeficiency virus 1; single-round vector infection; integrase S230N).
`Cn1cnc(Cn2c(=O)[nH]/c(=N\c3cc4cn(C)nc4cc3Cl)n(Cc3cc(F)c(F)cc3F)c2=O)n1`: “patients with adverse event” 0% (human, normal renal function; oral, 375 mg, treatment-related decreased GFR, Moderate severity).
For `COCC(C)n1ccn2cc(C(=O)NCc3ccc(F)cc3F)c(=O)c(O)c2c1=O` (centres unmarked), the EC50 was 2.8 ± 0.3 nM (human immunodeficiency virus 1; single-round vector infection; integrase R263K).
`O=C1Nc2ccc(Cl)cc2[C@@](C#CC2CC2)(C(F)(F)F)O1` has an EC50 of 0.2 ± 0.04 nM (HIV-1; viral replication, single-round infection; RT mutant M184I).
`O=C(NCc1ccc(F)cc1F)c1cn2cc[nH]c(=O)c2c(O)c1=O` gave an EC50 of 54.2 ± 2.7 nM (human immunodeficiency virus 1; single-round vector infection; integrase R263K).
For `CCCC(=O)OCSc1ccccc1C(=O)NCCC(N)=O`, the EC50 was 3450 ± 1900 nM (HIV-1; viral replication; human PBMC, subtype G JV1083, CCR5-tropic clinical isolate).
With `COC(Cn1ccn2cc(C(=O)NCc3ccc(F)cc3F)c(=O)c(O)c2c1=O)OC` the EC50 was 5.2 ± 0.7 nM (human immunodeficiency virus 1; single-round vector infection; integrase S230N).
The EC50 of `Cc1cc2cc(C#N)ccc2c(C)c1Nc1ncnc(Nc2ccc(C#N)cc2)n1` is reported as under 10 nM (HIV-1 K103N/Y181C; viral replication; T-cells).
For `Cc1cn([C@H]2C[C@H](N=[N+]=[N-])[C@@H](CO)O2)c(=O)[nH]c1=O`, the EC50 was 4.03 ± 2.06 nM (HIV-1; viral replication; human PBMC, subtype A 92RW009, CCR5-tropic clinical isolate).
For `Nc1ncnc2c([C@@H]3N[C@H](CO)[C@@H](O)[C@H]3O)c[nH]c12`, the inhibition was 0.5% (Venezuelan equine encephalitis virus; viral replication; HeLa, SH3; 25 µM).
`Cn1c(Cn2ccc(C(F)(F)F)c(Oc3cc(Cl)cc(C#N)c3)c2=O)n[nH]c1=O` gave an EC50 of 6.8 ± 2.5 nM (HIV-1; viral replication, single-round infection; RT mutant L234I).
`CNC(=O)[C@@H](NC(=O)[C@H](CC(C)C)[C@H](O)C(=O)NO)C(C)(C)C`: “remaining fibrinogen Aα chain” 0.673 (human fibrinogen; SDS-PAGE; Daboia russelii; concentration not given, unit not given, together with: KL venom; baseline: untreated fibrinogen).
With `CN(C)c1ccc(-c2nc(-c3cccs3)c(-c3cccs3)[nH]2)cc1` the maximum response was 41.1% (SARS-CoV-2; cytopathic effect; USA_WA1/2020; round 1, 5-point).
With `NC(=O)c1ncn([C@@H]2O[C@H](CO)[C@@H](O)[C@H]2O)n1` the EC50 was 33000 nM (Japanese encephalitis virus; viral replication; BHK-21; 72 h).
`C[C@H](NP(=O)(OC[C@@]1(F)O[C@@H](n2ccc(N)nc2=O)C(F)(F)[C@@H]1O)Oc1ccccc1)C(=O)OCc1ccccc1` (some centres unmarked) gave an EC50 of 2000 to 3000 nM (varicella-zoster virus; viral replication, plaque reduction; HEL fibroblasts, TK-deficient 07-1).
With `COC(CN1CCn2cc(C(=O)NCc3ccc(F)cc3F)c(=O)c(O)c2C1=O)OC` the EC50 was 8.6 ± 1.2 nM (human immunodeficiency virus 1; single-round vector infection; integrase S230N).
The efficacy of `CC(C)(C)NCc1ccc(Nc2ccnc3cc(Cl)ccc23)cc1O` is reported as 85.1% (SARS-CoV-2; cytopathic effect; USA_WA1/2020; round 2, 5-point).
`CC(C)(C)[C@H](NC(=O)C(F)(F)F)C(=O)N1C[C@H]2[C@@H]([C@H]1C(=O)N[C@H](C#N)C[C@@H]1CCNC1=O)C2(C)C` gave an EC50 of over 10000 nM (Norovirus; viral replication; HG23 replicon cells; 96 h).
For `CC[C@H](C)[C@H](NC(=O)[C@H](CC(C)C)NC(=O)[C@H](Cc1c[nH]c2ccccc12)NC(=O)[C@H](CCC(N)=O)NC(=O)[C@@H](NC(=O)[C@H](Cc1ccccc1)NC(=O)[C@H](C)NC(=O)[C@H](CCCCNC(=O)COCCOCCNC(=O)COCCOCCNC(=O)CC[C@H](NC(=O)CCCCCCCCCCCCCCCCCCC(=O)O)C(=O)O)NC(=O)[C@H](CCC(N)=O)NC(=O)[C@H](C)NC(=O)[C@@H](NC(=O)[C@H](CCCCN)NC(=O)[C@H](CC(=O)O)NC(=O)[C@H](CC(C)C)NC(=O)C(C)(C)NC(=O)[C@@H](NC(=O)[C@H](CO)NC(=O)[C@H](Cc1ccc(O)cc1)NC(=O)[C@H](CC(=O)O)NC(=O)[C@H](CO)NC(=O)[C@@H](NC(=O)[C@H](Cc1ccccc1)NC(=O)[C@@H](NC(=O)CNC(=O)[C@H](CCC(=O)O)NC(=O)C(C)(C)NC(=O)[C@@H](N)Cc1ccc(O)cc1)[C@@H](C)O)[C@@H](C)O)[C@@H](C)CC)[C@@H](C)CC)C(C)C)C(=O)N[C@@H](C)C(=O)NCC(=O)NCC(=O)N1CCC[C@H]1C(=O)N[C@@H](CO)C(=O)N[C@@H](CO)C(=O)NCC(=O)N[C@@H](C)C(=O)N1CCC[C@H]1C(=O)N1CCC[C@H]1C(=O)N1CCC[C@H]1C(=O)N[C@@H](CO)C(N)=O`, “subjects with treatment-emergent ADA” read 8.3% (measured: anti-drug antibodies; patients with type 2 diabetes; 5/5/10/10 mg escalating, post-baseline).
`Cc1cc(/C=C/C#N)cc(C)c1-n1cnc2cnc(Nc3ccc4cc(C#N)ccc4c3)nc21` gave an EC50 of 28.1 ± 1.9 nM (HIV-1; viral replication, single-round infection; RT mutant V106A/F227L).
For `CC(C)=CCC/C(C)=C/Cn1ccn2cc(C(=O)NCc3ccc(F)cc3F)c(=O)c(O)c2c1=O`, the EC50 was 165 ± 5.4 nM (human immunodeficiency virus 1; single-round vector infection; integrase G118R).
With `Cc1cc(/C=C/C#N)cc(C)c1-n1cnc2cnc(Nc3ccc(/C=C/C#N)cc3)nc21` the EC50 was 11.2 ± 2.2 nM (HIV-1; viral replication, single-round infection; RT mutant V106A/F227L).
The EC50 of `NC(=O)CCNC(=O)c1ccccc1S` is reported as 6820 ± 2130 nM (HIV-1; viral replication; human PBMC, subtype A 92UG029, CXCR4-tropic clinical isolate).
